Measured values collected from several papers.
Protocols differ between the studies behind these lines. ± gives the spread as reported.
Cell line: U-251

| Compound | test | setting | scale | measurement | result |
| --- | --- | --- | --- | --- | --- |
| CCCCN1CCN(c2ccc3[nH]c(-c4ccc5[nH]c(-c6ccc(OCC)cc6)nc5c4)nc3c2)CC1 | SRB | 10 µM, 48 h | – | growth percent | 60.5% |
| Cn1ncnc1[C@H]1c2n[nH]c(=O)c3cc(F)cc(c23)N[C@@H]1c1ccc(F)cc1 | immunofluorescence | 3 nM, together with: temozolomide 100 µM | relative to: DMSO | RPA and γH2AX foci | no effect |
| Cn1cncc1C1=CN(c2ncnc3[nH]cnc23)CCS1 | – | CNS cancer | – | TGI | > 200 µM |
| CSc1nc(-c2ccc(Cl)cc2)c2c(NC(=O)c3ccccc3)nnc-2[nH]1 | SRB | 10 µM, NCI60 single-dose screen | relative to: untreated | cell growth | 96.7% |
| O=c1ccn(Cc2cn(-c3cc4ccccc4oc3=O)nn2)c(=O)[nH]1 | – | 10 µM, CNS cancer cell line, NCI60 | – | growth percentage | 102% |
| O=C(Nc1nnc2[nH]c(=S)[nH]c(-c3ccc(Cl)cc3)c1-2)c1ccccc1 | SRB | 10 µM, NCI60 single-dose screen | relative to: untreated | cell growth | 107% |
| CN1CCN(c2ccc3[nH]c(-c4ccc5[nH]c(-c6ccc(C(F)(F)F)cc6)nc5c4)nc3c2)CC1 | SRB | 10 µM, 48 h | – | growth percent | 34.7% |
| CCCC(CCC)C(=O)OCc1cn(-c2c3ccccc3nc3ccccc23)nn1 | – | 10 µM, CNS cancer cell line, NCI60 | – | growth percentage | 92.7% |
| COc1ccc(-c2ccc3ncc4c(c3c2)n([C@@H]2CCN(C)CC2(F)F)c(=O)n4C)cn1 | immunofluorescence | 30 nM, 1 h after irradiation, together with: radiation 5 Gy | – | γH2AX foci induction | 18.5 ± 5% |
| O=C1NC(=NCc2cccs2)S/C1=C\c1ccc2ncccc2c1 | MTS | NCI60 panel | – | IC50 | 1.92 µM |
| CCCN1CCN(c2ccc3[nH]c(-c4ccc5[nH]c(-c6cc(OC)c(OC)c(OC)c6)nc5c4)nc3c2)CC1 | SRB | 10 µM, 48 h | – | growth percent | 66.3% |
| O=C(Nc1nnc2n3c(Cc4ccccc4)n[nH]c3nc(-c3ccc(Cl)cc3)c1-2)c1ccccc1 | SRB | 10 µM, NCI60 single-dose screen | relative to: untreated | cell growth | 101% |
| O=C1NC(c2ccccc2)(c2ccccc2)C(=O)N1Cc1cn(-c2cc3ccccc3oc2=O)nn1 | – | 10 µM, CNS cancer cell line, NCI60 | – | growth percentage | 86.5% |
| Cc1n[nH]c2nc(-c3ccc(Cl)cc3)c3c(NC(=O)c4ccccc4)nnc-3n12 | SRB | 10 µM, NCI60 single-dose screen | relative to: untreated | cell growth | 103% |
| CCCCN1CCN(c2ccc3nc(-c4ccc5nc(-c6cc(OC)ccc6OC)[nH]c5c4)[nH]c3c2)CC1 | SRB | 10 µM, 48 h | – | growth percent | 84% |
| CCN(CC)c1ccc(C=NNC(=O)CSc2nc3ccccc3c(=O)n2Cc2ccc(S(N)(=O)=O)cc2)c(O)c1 | NCI five-dose screen | – | – | TGI | > 100 µM |
| C=CC(=O)Nc1cc(Nc2nccc(-c3cn(C)c4ccccc34)n2)c(OC)cc1N(C)CCN(C)C | refers to: PIK3CA | 30 µM, 24 h | relative to: control | mRNA level | ~1.5 fold |
| CCCCN1CCN(c2ccc3[nH]c(-c4ccc5[nH]c(-c6ccc(OCC)c(OCC)c6)nc5c4)nc3c2)CC1 | SRB | 10 µM, 48 h | – | growth percent | -61.4% |
| C#C[C@@]1(O)[C@@H](CO)O[C@@H](n2ccc3c(N)ncnc32)[C@@H]1O | SRB | NCI-60 screen | – | TGI | 11.8 µM |
| CCOC(=O)CSc1nc(-c2ccc(Cl)cc2)c2c(NC(=O)c3ccccc3)nnc-2[nH]1 | SRB | 10 µM, NCI60 single-dose screen | relative to: untreated | cell growth | 102% |
| CCCCN1CCN(c2ccc3[nH]c(-c4ccc5[nH]c(-c6cc(OC)c(OC)c(OC)c6)nc5c4)nc3c2)CC1 | SRB | 10 µM, 48 h | – | growth percent | 56.3% |

A few entries again:
| Compound | test | setting | scale | measurement | result |
| --- | --- | --- | --- | --- | --- |
| CCOC(=O)CSc1nc(-c2ccc(Cl)cc2)c2c(NC(=O)c3ccccc3)nnc-2[nH]1 | SRB | 10 µM, NCI60 single-dose screen | relative to: untreated | cell growth | 102% |
| CCCCN1CCN(c2ccc3[nH]c(-c4ccc5[nH]c(-c6cc(OC)c(OC)c(OC)c6)nc5c4)nc3c2)CC1 | SRB | 10 µM, 48 h | – | growth percent | 56.3% |
